Published values from different studies.
APP: Amyloid-beta precursor protein (APP, Homo sapiens, UniProt P05067)
Sequence of UniProt P05067 (whole entry, looked up): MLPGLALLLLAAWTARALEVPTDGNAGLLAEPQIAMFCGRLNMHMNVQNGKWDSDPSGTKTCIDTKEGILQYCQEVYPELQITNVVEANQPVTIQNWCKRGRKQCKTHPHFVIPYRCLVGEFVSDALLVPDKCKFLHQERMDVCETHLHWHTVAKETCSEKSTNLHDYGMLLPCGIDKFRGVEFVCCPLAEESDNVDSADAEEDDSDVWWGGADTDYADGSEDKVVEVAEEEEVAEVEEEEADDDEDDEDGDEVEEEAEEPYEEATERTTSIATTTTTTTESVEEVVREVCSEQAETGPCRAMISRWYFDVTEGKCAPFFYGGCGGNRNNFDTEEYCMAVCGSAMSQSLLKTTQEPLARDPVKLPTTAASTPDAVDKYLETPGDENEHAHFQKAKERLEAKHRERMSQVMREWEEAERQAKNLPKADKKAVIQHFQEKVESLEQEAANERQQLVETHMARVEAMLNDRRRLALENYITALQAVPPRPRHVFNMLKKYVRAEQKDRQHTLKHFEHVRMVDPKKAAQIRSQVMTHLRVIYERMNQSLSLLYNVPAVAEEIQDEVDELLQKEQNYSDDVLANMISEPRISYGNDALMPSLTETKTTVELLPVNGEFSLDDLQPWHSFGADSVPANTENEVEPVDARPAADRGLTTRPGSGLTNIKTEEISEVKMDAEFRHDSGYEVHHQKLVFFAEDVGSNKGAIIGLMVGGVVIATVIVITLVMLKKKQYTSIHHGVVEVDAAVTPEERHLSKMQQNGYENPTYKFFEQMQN
lasR: Transcriptional activator protein LasR (lasR, Pseudomonas aeruginosa, UniProt P25084)
Sequence of UniProt P25084 (whole entry, looked up): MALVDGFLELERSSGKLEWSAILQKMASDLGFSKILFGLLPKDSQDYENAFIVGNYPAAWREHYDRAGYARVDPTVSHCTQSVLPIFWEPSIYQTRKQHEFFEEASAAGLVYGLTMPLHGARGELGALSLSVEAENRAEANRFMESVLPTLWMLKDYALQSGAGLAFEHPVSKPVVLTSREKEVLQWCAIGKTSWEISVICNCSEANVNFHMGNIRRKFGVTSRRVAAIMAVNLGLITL
Sequence of UniProt Q0QF01 (whole entry, looked up): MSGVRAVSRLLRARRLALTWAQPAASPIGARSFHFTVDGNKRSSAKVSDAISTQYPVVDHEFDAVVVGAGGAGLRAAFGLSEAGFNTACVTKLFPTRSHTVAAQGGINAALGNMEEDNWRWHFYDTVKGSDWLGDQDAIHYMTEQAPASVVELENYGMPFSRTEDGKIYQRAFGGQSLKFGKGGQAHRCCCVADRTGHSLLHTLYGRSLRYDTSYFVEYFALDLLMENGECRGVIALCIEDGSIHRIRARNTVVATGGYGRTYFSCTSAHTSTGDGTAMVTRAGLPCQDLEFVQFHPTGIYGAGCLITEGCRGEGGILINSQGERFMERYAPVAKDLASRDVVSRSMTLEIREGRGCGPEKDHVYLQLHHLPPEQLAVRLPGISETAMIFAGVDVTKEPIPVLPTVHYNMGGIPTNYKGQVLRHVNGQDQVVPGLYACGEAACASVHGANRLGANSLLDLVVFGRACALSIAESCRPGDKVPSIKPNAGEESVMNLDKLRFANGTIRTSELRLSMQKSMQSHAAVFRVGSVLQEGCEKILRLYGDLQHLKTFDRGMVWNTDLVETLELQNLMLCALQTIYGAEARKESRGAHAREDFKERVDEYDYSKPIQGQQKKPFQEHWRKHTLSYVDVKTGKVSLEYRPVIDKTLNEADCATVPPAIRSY
Sequence of UniProt A5GZW8 (whole entry, looked up): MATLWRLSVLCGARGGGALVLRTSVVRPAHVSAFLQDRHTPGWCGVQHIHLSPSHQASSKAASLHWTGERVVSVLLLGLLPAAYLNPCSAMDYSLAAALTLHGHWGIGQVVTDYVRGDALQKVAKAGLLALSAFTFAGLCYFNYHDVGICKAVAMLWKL
Sequence of UniProt P21397 (whole entry, looked up): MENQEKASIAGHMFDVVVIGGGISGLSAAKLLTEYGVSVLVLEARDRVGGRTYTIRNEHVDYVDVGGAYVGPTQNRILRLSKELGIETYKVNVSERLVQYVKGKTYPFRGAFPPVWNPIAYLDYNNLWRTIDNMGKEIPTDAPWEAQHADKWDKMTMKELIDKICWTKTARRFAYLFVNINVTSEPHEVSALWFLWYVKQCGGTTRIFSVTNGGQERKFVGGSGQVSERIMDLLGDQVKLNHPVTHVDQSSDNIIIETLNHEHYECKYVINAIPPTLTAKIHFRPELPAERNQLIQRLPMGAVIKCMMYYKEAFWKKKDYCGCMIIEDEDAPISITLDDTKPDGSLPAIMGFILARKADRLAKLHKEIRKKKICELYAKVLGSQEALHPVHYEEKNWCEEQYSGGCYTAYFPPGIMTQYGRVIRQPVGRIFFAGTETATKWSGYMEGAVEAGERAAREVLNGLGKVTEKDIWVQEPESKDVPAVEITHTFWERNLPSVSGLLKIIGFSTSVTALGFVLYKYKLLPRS
Sequence of UniProt O60656 (whole entry, looked up): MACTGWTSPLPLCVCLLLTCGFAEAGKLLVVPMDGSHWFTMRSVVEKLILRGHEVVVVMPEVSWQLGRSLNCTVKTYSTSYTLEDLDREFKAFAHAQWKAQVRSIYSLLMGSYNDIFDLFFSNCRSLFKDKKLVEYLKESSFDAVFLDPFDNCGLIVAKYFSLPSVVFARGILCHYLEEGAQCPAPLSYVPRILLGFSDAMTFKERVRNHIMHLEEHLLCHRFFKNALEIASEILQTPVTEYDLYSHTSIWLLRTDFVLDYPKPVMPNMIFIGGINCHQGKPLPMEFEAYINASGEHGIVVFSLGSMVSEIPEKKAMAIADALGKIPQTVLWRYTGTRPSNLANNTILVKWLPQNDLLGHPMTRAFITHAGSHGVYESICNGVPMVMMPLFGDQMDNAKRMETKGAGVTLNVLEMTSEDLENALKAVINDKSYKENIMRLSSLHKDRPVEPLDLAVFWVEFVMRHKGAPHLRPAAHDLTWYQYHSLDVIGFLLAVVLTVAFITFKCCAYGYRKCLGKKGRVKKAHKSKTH
Sequence of UniProt D0VWV4 (whole entry, looked up): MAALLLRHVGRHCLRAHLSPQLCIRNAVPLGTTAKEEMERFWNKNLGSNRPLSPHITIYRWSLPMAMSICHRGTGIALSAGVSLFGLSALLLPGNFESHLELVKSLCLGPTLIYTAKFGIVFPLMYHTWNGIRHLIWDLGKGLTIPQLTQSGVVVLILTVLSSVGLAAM
Sequence of UniProt Q007T0 (whole entry, looked up): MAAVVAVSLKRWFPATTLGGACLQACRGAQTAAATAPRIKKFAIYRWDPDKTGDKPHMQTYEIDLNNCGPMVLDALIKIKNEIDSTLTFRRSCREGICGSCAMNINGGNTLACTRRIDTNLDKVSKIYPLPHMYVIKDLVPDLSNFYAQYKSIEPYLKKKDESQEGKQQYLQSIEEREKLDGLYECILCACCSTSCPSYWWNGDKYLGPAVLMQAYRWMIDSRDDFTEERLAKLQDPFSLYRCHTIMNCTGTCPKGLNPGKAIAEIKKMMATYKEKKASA

SMILES	target	assay	system	conditions	scale	inhibition
Ic1ccccc1/N=N/c1ccc2nc(-c3ccccc3)c(I)c(-c3ccccc3)c2c1	APP	amyloid aggregation, inhibitor, fluorescence		25 µM		70.1%
O=C(Cn1cc(-c2cccc(-c3cn(CC(=O)N[C@H]4CCOC4=O)nn3)c2)nn1)N[C@H]1CCOC1=O	lasR	reporter gene, antagonist		100 µM, with: OdDHL 10 nM		6%
CC[C@H](C)[C@@H]1NC(=O)CNC(=O)[C@H](CCSC)NC(=O)[C@H](C(C)C)NC(=O)[C@H]([C@@H](C)O)NC(=O)[C@@H]2CSSC[C@@H]3NC(=O)[C@H](Cc4c[nH]cn4)NC(=O)[C@@H](NC(=O)[C@@H](NC(=O)[C@H](Cc4ccccc4)NC(=O)[C@H](C)N)[C@@H](C)O)CSSC[C@@H](C(=O)N[C@@H](CC(C)C)C(=O)O)NC(=O)[C@H](CSSC[C@H](NC(=O)[C@H](CO)NC(=O)[C@H](CCCNC(=N)N)NC(=O)[C@H](CCCNC(=N)N)NC3=O)C(=O)N[C@@H](Cc3ccc(O)cc3)C(=O)N[C@@H](CO)C(=O)N[C@@H]([C@@H](C)O)C(=O)N[C@@H](CCC(=O)O)C(=O)N[C@@H](Cc3ccc(O)cc3)C(=O)N[C@@H](CO)C(=O)N[C@@H](Cc3ccc(O)cc3)C(=O)NCC(=O)N[C@@H]([C@@H](C)O)C(=O)N2)NC(=O)[C@H](Cc2ccccc2)NC(=O)[C@H](CCCNC(=N)N)NC(=O)[C@H](Cc2c[nH]cn2)NC(=O)[C@H](CC(N)=O)NC1=O	Amyloid-beta precursor protein, Aβ42 (APP, Homo sapiens, UniProt P05067)	amyloid fibril formation, inhibitor, ThT fluorescence		concentration not given, 24 to 30 h, 37 °C, compound ratio 1:1, with: amyloid-beta 20 µM		82%
COc1cc2c3c(c4cc(OC)c(OC)cc4c2cc1OC)CN1CCCCC1C3 (centres unmarked)	Replicase polyprotein 1ab, main protease (rep, Porcine transmissible gastroenteritis coronavirus, UniProt P0C6Y5)	enzyme activity		concentration not given		no inhibition
O=C(N[C@H]1CCOC1=O)c1ccc(-n2cc(C3CC3)nn2)cc1	lasR	reporter gene, antagonist		100 µM, with: OdDHL 10 nM		54%
CC(=O)NC(Cc1ccc(Br)c(Cl)c1)C(=O)N[C@@H](C)C(=O)N1CCC[C@H]1C(=O)N1CCC[C@H]1C(=O)N[C@@H](CCC(=O)O)C(=O)N[C@@H](Cc1c[nH]cn1)C(=O)N[C@@H](CO)C(=O)N[C@H](C(=O)N[C@@H](C)C(N)=O)[C@@H](C)OP(=O)(O)O (some centres unmarked)	PRKACA (Homo sapiens, UniProt P17612)	enzyme activity, inhibitor		10 µM		0.79%
C=C(C)[C@@H]1CCC(CO)=C[C@H]1c1c(O)cc(CCCCC)cc1O	UGT1A9 (Homo sapiens, UniProt O60656)	inhibitor	HEK293 overexpressing UGT1A9, recombinant UGT1A9 microsomes	100 µM, with: propofol glucuronidation	reference: no-inhibitor control	40%
Cc1ccc(-c2nc3ccc(/N=N/c4ccc(Br)cc4)cc3c(-c3ccccc3)c2I)cc1	APP	amyloid aggregation, inhibitor, fluorescence		25 µM		59%
O=C(Cn1cc(C2CCCCC2)nn1)N[C@H]1CCOC1=O	lasR	reporter gene, antagonist		100 µM, with: OdDHL 10 nM		72%
NC1CC1c1ccc(NC(=O)C(Cc2ccccc2)NC(=O)OCc2ccc(Br)cc2)cc1 (centres unmarked)	MAOA (Homo sapiens, UniProt P21397)	enzyme activity, inhibitor, HRP-coupled		100 µM, with: kynuramine		71%
O=C(Nc1ccccc1Nc1ccccc1)c1cccnc1Cl	Succinate dehydrogenase complex (Sus scrofa, UniProt A5GZW8+D0VWV4+Q007T0+Q0QF01)	enzyme activity, double-antibody sandwich ELISA		0.5 µM		21.8%

Some of these lines once more:
SMILES	target	assay	system	conditions	scale	inhibition
COc1cc2c3c(c4cc(OC)c(OC)cc4c2cc1OC)CN1CCCCC1C3 (centres unmarked)	Replicase polyprotein 1ab, main protease (rep, Porcine transmissible gastroenteritis coronavirus, UniProt P0C6Y5)	enzyme activity		concentration not given		no inhibition
